{"data": "Results from different studies", "note": "Parts stem from different laboratories: compare values within a part only. Positions count from the first letter of the parent shown."}
{"data": "Study 1", "target": "Histone acetyltransferase KAT6A, both winged helices, GST fusion (KAT6A, Homo sapiens, UniProt Q92794, residues 1-181)", "technique": "protein binding microarray", "form": "double-stranded DNA, one strand shown", "sample": "in vitro", "concentration": "not given", "setting": "8-mer, flanks averaged, mean of 2 arrays, mostly near background", "relative to": "not given", "reading": "higher = stronger binding", "Residues (chain)": "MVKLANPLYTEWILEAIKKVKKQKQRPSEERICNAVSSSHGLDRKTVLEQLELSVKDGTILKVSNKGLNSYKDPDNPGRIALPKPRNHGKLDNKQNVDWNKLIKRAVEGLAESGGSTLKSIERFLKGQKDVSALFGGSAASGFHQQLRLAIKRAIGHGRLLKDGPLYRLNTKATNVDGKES"}
{"Sequence": "CCGTACAC", "E-score": 0.19}
{"Sequence": "GATACTCC", "E-score": -0.106}
{"Sequence": "ACATAAGT", "E-score": -0.102}
{"Sequence": "GGCCGAGA", "E-score": 0.135}
{"Sequence": "CCAGACAA", "E-score": -0.191}
{"Sequence": "GGGCGAGA", "E-score": 0.00102}
{"Sequence": "TCTAATCA", "E-score": -0.0217}
{"Sequence": "CCCAGTAA", "E-score": -0.109}
{"Sequence": "AATTAGAT", "E-score": -0.125}
{"Sequence": "ATAACTAG", "E-score": 0.0426}
{"Sequence": "AGAGTGCC", "E-score": -0.203}
{"Sequence": "GCCGTGAC", "E-score": 0.245}
{"Sequence": "CTGTGCAA", "E-score": -0.176}
{"Sequence": "ACCTCAAG", "E-score": -0.23}
{"Sequence": "CAAGTCAG", "E-score": -0.157}
{"Sequence": "GAGCCTCC", "E-score": -0.126}
{"Sequence": "GATAGAAA", "E-score": -0.069}
{"Sequence": "CAGAGCTA", "E-score": -0.129}
{"Sequence": "CATTAAAA", "E-score": -0.0513}
{"Sequence": "CGGTCATA", "E-score": 0.125}
{"data": "Study 2", "target": "RING finger protein unkempt homolog, zinc fingers 1-6, GST-SBP tag (UNK, Homo sapiens, UniProt Q9C0B0, residues 30-357)", "technique": "RNA Bind-n-Seq", "form": "RNA", "sample": "in vitro", "concentration": "not given", "setting": "RNA with constant flanks, human-mouse chimeric sites, ends assumed", "relative to": "input RNA pool", "reading": "higher = stronger binding", "all sequences stand within": "GGGAGUUCUACAGUCCGACGAUC … CAACAGAGGAUUGAGCAUCA", "Construct (chain)": "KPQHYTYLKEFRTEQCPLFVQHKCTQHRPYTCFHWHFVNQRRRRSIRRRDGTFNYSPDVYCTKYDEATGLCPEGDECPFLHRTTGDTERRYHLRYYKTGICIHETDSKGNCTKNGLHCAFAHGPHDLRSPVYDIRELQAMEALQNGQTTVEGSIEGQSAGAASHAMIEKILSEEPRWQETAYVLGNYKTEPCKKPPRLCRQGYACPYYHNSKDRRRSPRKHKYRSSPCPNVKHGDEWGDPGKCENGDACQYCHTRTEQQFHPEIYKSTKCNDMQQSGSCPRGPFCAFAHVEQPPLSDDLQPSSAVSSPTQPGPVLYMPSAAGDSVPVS"}
{"Sequence": "AAAGAACCUCUCUCUGAUGAAGAUGAGGAAGACAAUGAUGAUGUUGAACCCAUUUCUGAAUUUCGAUUUGUGCCCAGUGAUAAAUCAGCGUUGGAGGCGAUGUUCACAGCAAUGUGUGAG", "bound/input enrichment [ratio]": 0.287}
{"Sequence": "CACGUGUCUGCAGUGCUUGAUGUGGACUACUCUCCCACUGGGAAGGAAUUUGUGUCUGCCAGCUUUGAUAAGUCUAUUAGAAUCUUUCCUGUGGACAAGAGCCGAAGCAGGGAGGUAUAU", "bound/input enrichment [ratio]": 0.515}
{"Sequence": "GCUCUUGGGAAUGUAAUCAGCGCCUUGGGGGACAAGAGCAAGAGAGCCACCCAUGUCCCUUACAGAGACUCUAAGCUGACAAGACUCUUGCAGGAUUCCCUCGGGGGUAAUAGCCAAACC", "bound/input enrichment [ratio]": 0.129}
{"Sequence": "AUGGAACAUUUCGAUGCGUCACUCAGUACCUAUUUCAAGGCCUUCCUGGGCCCCCGAGAUACAAGAGUCAAAGGAUGGUUUCUUCUGGACAAUUACAUACCCACAUUUGUCUGUUCUGUU", "bound/input enrichment [ratio]": 0.0977}
{"Sequence": "CUGGCCUUCUGAGCAUCAGGGGCCUCCUUUCGUAUAGUCACUGCUUCUGCAUCAGAUACUUUCAGCUGCAACUCCCUACUGGGUGGGGCACCCAUUUCAGGCAGAAGGUUUUGGUACCCU", "bound/input enrichment [ratio]": 0.196}
{"Sequence": "AUGGAGAAGGAUUCUCUGCCCCGCUUUGUGCGCUCUGAGUUUUAUCAGGAGCUAAUCAAGUAGUAAUCUGGUCAGGCUUCCAAAAGUUGCCCUGUGAGUUGAGUUACAUCCUUUGUAGCA", "bound/input enrichment [ratio]": 0.263}
{"Sequence": "AAUUUCCUGUCAUACUUUUUAGACAUUGCCAUAGGUAUUACAGAGCACCUGGCCACAUUCUAGGUUUGUGUUAUUUCUAAGCCUUUUAUAUGAUCAAAUGAGAACACUGCUUAACUAAUG", "bound/input enrichment [ratio]": 0.983}
{"Sequence": "AUUGUUGAAGCGAAUCCACUCCUAGAAGCAUUUGGAAAUGCAAAGACUGUUCGCAACAAUAAUAGCAGUCGAUUUGGAAAAUUUGUAGAAAUUCAUUUCAAUGAAAAGAGCUCAGUUGUU", "bound/input enrichment [ratio]": 0.152}
{"Sequence": "ACCUCCCAGGCCUGGGACACCCCACCCCCGCUUUUUGGAAAGUUUUUGGCGUUUCUUUUCCUUCCCCAUACAAAGUGAUUACAGUUUCCCCCGCAAGGGUCUAUCGAUUCACCCUUCGGA", "bound/input enrichment [ratio]": 0.386}
{"Sequence": "UUGAAAACUGAUUCAAGCAAGUUUGAAUAUCACAAUGUUAGCUUUCUAAUUCCAUAAAAGUACUUGGUUUUUACAGUAACCCCACAUACAUCACCCCAGCGCCAUUUGUAAAGAGCAACU", "bound/input enrichment [ratio]": 0.978}
{"Sequence": "CUGUGACCACAAGAUCCUACCUGAGUGGCAGCUGAAGUUGACUCCCUCCCCUUCCCUGAACCCCCCCCCACUGCCCCCCCAUCCCCCAGUGUCGGCUGAGAUGUUGCCUCUGCACGGUUC", "bound/input enrichment [ratio]": 1.32}
{"data": "Study 3", "target": "RNA binding protein fox-1 homolog 2, RRM domain, GST-SBP tag (RBFOX2, Homo sapiens, UniProt O43251-10, residues 100-194)", "technique": "RNA Bind-n-Seq", "form": "RNA", "sample": "in vitro", "concentration": "365 nM", "setting": "natural RNA segment, single round, ends assumed", "relative to": "no-protein control", "reading": "higher = stronger binding", "all sequences stand within": "GGGAGUUCUACAGUCCGACGAUC … UGGAAUUCUCGGGUGCCAA", "Construct (chain)": "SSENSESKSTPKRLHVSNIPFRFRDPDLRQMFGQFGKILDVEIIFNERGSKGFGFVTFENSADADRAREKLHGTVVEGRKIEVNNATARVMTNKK"}
{"Sequence": "AAAGGGGGUCAAGAAAAGAGCAACAAAGCAAAAUUGUUCUUCCUCUUCCCUUCCCUGAUGCCAGGGGCACCAGACUGAUUCUGAGGCACAAAUAAAAGCGGUUUCAAACC", "RBNS enrichment (R)": 0.229}
{"Sequence": "AUACCAUUCUGUCUUUUAGACUUUCAACAUCUGCUAUGGUGGAGCACAAAUGUUAUUUAAAAGCAUCUUCUCACCUACAUAGAAGUAAACAAAACACACAAUUUGGGAUU", "RBNS enrichment (R)": 0.545}
{"Sequence": "UGUAAAUUAAAAAUGCUUUAGUUUACCUGGCAUUUGGGUAUGCUCAGUAAUGCCUGCCAGCAGCACCUUUAAUUUCAGCUGGUGGCCUGUGAUGGGUUCUGUUUACCUUU", "RBNS enrichment (R)": 0.376}
{"Sequence": "UUUUGAGGAAAAGUCAAAUUCAUUGUUUAUUUUUAUAUUAUUUUUAAGUUAUCUGAACAAAUACUUUUGAAAAAAAAGUUUGUUGUAUAGUCAAAACAAAUCGGUGCCAC", "RBNS enrichment (R)": 0.68}
{"Sequence": "CUGGCAAUGUUUAAGGACAACAAGUUCAAAUGCCGGAUAUUGAAUGAAAAGGUGAAUACUCCAACUACCACAGUCUAUAGGUGUGGCCCUUUGAUAGAUCUCUGCCGGGG", "RBNS enrichment (R)": 0.668}
{"Sequence": "AUACCACCAUUUCAUCUGGCUAGUUCACCAUCACAACUGCAUUACCAAAAGGGGAUUUUUGAAAACGAGGAGUUGACCAAAAUAAUAUCUGAAGAUGAUUGCUUUUCCCU", "RBNS enrichment (R)": 0.632}
{"Sequence": "CUUCGGGAAUGUUUAAGAUCGAUCAGUAAAUAACUUCCCAGAAGACCACCCUAUGUCUAUUAAGCCUGAGGGCAGGGGAUCCUGAGCACACUUUGGGCAGAAAUAAGUCA", "RBNS enrichment (R)": 1.44}
{"Sequence": "UGCUAUGGCCUGGUGUGUAAUGGGUUAAACAAUAAGCCACUGCCUGACACCCACAUCCACUUUAGCCAUGUGUGACUCCCUAACAUUCCAAUCCUCUACCAUCCUGCAGC", "RBNS enrichment (R)": 0.73}
{"Sequence": "GGUGGUGUUCUGGUAAAAUUGUUAGAAUAGCUGUAUGAAGGAAACCAGUGGGAGGAAAUGAAGUUUUCAGGAUGGUGGGAUGUGAUUUAGACAGUGCACAUGCUGUUAGG", "RBNS enrichment (R)": 1.6}
{"Sequence": "UGCAGGCCCACCCCAGCCACCACUGAGUCCACUCGGAGUGCCCUGUGUUCCUGGAGAAGGCAUUCCAGGGUUGAAUCUUGUCCCAGCCUCAGCCUGGGACACCUAGGUGG", "RBNS enrichment (R)": 0.278}
{"Sequence": "CUAUAUUUAUUAUAUAUUUUUUCCUUAUUAACAGAGUAUUAAUCUAGUAAAAAAUAACCCAGCAGUAAAUAAUAAAGAAAUUACUGAAUGAGAGGAUAAUGAAUCUGAAU", "RBNS enrichment (R)": 0.555}
{"Sequence": "UGCUUCGCCCCACUGCAUAGCUGUGUUAAGCUACAUGGCUUUAAUGAUAAAUGGGUUUAUUUCUAAGGUGUGUGGGCCAGAUACCUUGUGUUUCUUAGAUACCCACGUGG", "RBNS enrichment (R)": 0.302}
{"data": "Study 4", "target": "CCNA2, cyclin fold, Cln2 fusion (human)", "technique": "yeast growth competition, sequencing", "sample": "yeast", "setting": "strong parent motif", "relative to": "not given", "reading": "higher = stronger binding", "starting sequence": "RBL2 docking peptide (human); STTRRRLFVENDS; partner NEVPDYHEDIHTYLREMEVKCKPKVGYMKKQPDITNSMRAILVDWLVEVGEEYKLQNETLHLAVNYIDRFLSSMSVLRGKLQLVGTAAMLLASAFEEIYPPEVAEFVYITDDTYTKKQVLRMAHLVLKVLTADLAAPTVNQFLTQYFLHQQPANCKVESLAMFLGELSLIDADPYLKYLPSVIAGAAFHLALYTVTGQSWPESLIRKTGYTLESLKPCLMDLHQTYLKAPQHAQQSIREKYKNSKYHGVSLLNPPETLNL"}
{"Substitution": "SQTRRRLFVENDS [T2Q]", "normalised enrichment score": 5.25}
{"Substitution": "STTRRRLFVENES [D12E]", "normalised enrichment score": 4.69}
{"Substitution": "DTTRRRLFVENDS [S1D]", "normalised enrichment score": 3.8}
{"Substitution": "STTRRRLFVINDS [E10I]", "normalised enrichment score": 3.58}
{"Substitution": "STTRRDLFVENDS [R6D]", "normalised enrichment score": -0.00284}
{"Substitution": "STTRRPLFVENDS [R6P]", "normalised enrichment score": 1.45}
{"Substitution": "STTRRRLFVENDG [S13G]", "normalised enrichment score": 5.71}
{"Substitution": "STTRRVLFVENDS [R6V]", "normalised enrichment score": 3.22}
{"Substitution": "STTHRRLFVENDS [R4H]", "normalised enrichment score": 2.13}
{"Substitution": "STTRRRLSVENDS [F8S]", "normalised enrichment score": 0.413}
{"Substitution": "KTTRRRLFVENDS [S1K]", "normalised enrichment score": 5.83}
{"Substitution": "STTRRNLFVENDS [R6N]", "normalised enrichment score": 1.69}
{"Substitution": "STTRRILFVENDS [R6I]", "normalised enrichment score": 2.38}
{"Substitution": "STTRRRLFVENGS [D12G]", "normalised enrichment score": 5.66}
{"Substitution": "STTPRRLFVENDS [R4P]", "normalised enrichment score": 0.676}
{"Substitution": "SVTRRRLFVENDS [T2V]", "normalised enrichment score": 5.52}
{"Substitution": "STTRTRLFVENDS [R5T]", "normalised enrichment score": 2.01}
{"Substitution": "STTRRRLFVKNDS [E10K]", "normalised enrichment score": 3.68}
{"Substitution": "STTRRRLFNENDS [V9N]", "normalised enrichment score": 6.63}
{"Substitution": "STTRRRLFVENDN [S13N]", "normalised enrichment score": 4.71}
{"Substitution": "STTRRRLFVENDI [S13I]", "normalised enrichment score": 5.96}
{"Substitution": "STTRRRLFVENHS [D12H]", "normalised enrichment score": 5.55}
{"Substitution": "STTRRRLFVENDY [S13Y]", "normalised enrichment score": 5.91}
{"Substitution": "STTRRRQFVENDS [L7Q]", "normalised enrichment score": 0.378}
{"Substitution": "STTRPRLFVENDS [R5P]", "normalised enrichment score": 0.439}
